Experimental data from different studies.
± marks the error that the study gave.

| Structure (SMILES) | cell line | test | system | setting | IC50 |
| --- | --- | --- | --- | --- | --- |
| CC[C@H](C)[C@H](NC(=O)CN)C(=O)NCC(=O)N[C@@H](C)C(=O)N[C@H](C(=O)N[C@@H](CC(C)C)C(=O)N[C@@H](CCCCN)C(=O)N[C@H](C(=O)N[C@@H](CC(C)C)C(=O)N[C@H](C(=O)N[C@H](C(=O)NCC(=O)N[C@@H](CC(C)C)C(=O)N1CCC[C@H]1C(=O)N[C@@H](C)C(=O)N[C@@H](CC(C)C)C(=O)N[C@H](C(=O)N[C@@H](CO)C(=O)N[C@@H](Cc1c[nH]c2ccccc12)C(=O)N[C@H](C(=O)N[C@@H](CCCCN)C(=O)N[C@@H](CCCNC(=N)N)C(=O)N[C@@H](CCCCN)C(=O)N[C@@H](CCCNC(=N)N)C(=O)N[C@@H](CCC(N)=O)C(=O)N[C@@H](CCC(N)=O)C(N)=O)[C@@H](C)CC)[C@@H](C)CC)[C@@H](C)O)[C@@H](C)O)C(C)C)C(C)C | HCE-T | cytotoxicity, MTT | – | 24 h | 7.87 µM |
| N=C(N)Nc1ccc(NC(=O)c2cc(C(F)(F)F)cc(C(F)(F)F)c2)cc1OCc1ccc(C(F)(F)F)cc1 | mouse RAW264.7 macrophages | cell viability | – | 48 h | > 500 µM |
| COc1cc2c(O)c3c(c(-c4ccc5c(c4)OCO5)c2cc1OC)C(=O)N(/N=C/c1ccc(Cl)cc1)C3 | HEK293 | endosomal acidification | – | – | 9.93 ± 0.14 µM |
| COc1c(C)c2c(c(O)c1C/C=C(\C)CCC(=O)O)C(=O)OC2 | MDA-MB-435 | cell proliferation | skin cancer | – | 0.316 µM |
| C#CCOc1c2c(c(-c3ccc4c(c3)OCO4)c3cc(OC)c(OC)cc13)C(=O)OC2 | HEK293 | endosomal acidification | – | 4 h | 0.263 ± 0.0466 µM |
| CN1CCN(S(=O)(=O)c2cc([N+](=O)[O-])ccc2N(CCOS(C)(=O)=O)CCOS(C)(=O)=O)CC1 | sample H B-ALL PDX cells | cytotoxicity | – | 48 h, BCP-ALL, ex vivo | 0.859 µM |
| N.N.[Cl][Pt][Cl] | A549/DDP cisplatin-resistant | MTT | – | 48 h, non-transfected | 66.8 ± 6.26 µM |
| COc1cc2c(O)c3c(c(-c4ccc5c(c4)OCO5)c2cc1OC)C(=O)OC3 | HEK293 | endosomal acidification | – | – | 0.476 ± 0.0601 µM |
| CC(C)C[C@H](NC(=O)[C@H](CO)NC(=O)[C@H](CO)NC(=O)CNC(=O)[C@@H]1CCCN1C(=O)[C@H](Cc1ccc(O)cc1)NC(=O)[C@H](CC(C)C)NC(=O)[C@H](CO)NC(=O)[C@H](CS)NC(=O)[C@H](CC(C)C)NC(=O)[C@@H](N)CC(C)C)C(=O)O | A-431 | cell viability, MTT | – | 72 h | 71.5 ± 7.56 µM |
| C#CC[N+]1(CC)CCc2c(sc(NC(=O)c3c(F)c(F)c(F)c(F)c3F)c2C(=O)OCC)C1.[Br-] (centres unmarked) | J774.A1 | cytotoxicity, resazurin | – | up to 200 µM, 18 h | not toxic |
| N.N.O=C([O-])C1(C(=O)[O-])CCC1.[Pt+2] | patient-derived organoid sample A | organoid viability | human | 96 h | 96.9 µM |
| NC(=O)C1CCN(c2ccncc2)CC1 | 7dF3 | WNT reporter gene, inhibitor | – | – | > 5 µM |
| COc1cc2c(O)c3c(c(-c4ccc5c(c4)OCO5)c2cc1OC)C(=O)N(/N=C/c1ccccc1)C3 | HEK293 | endosomal acidification | – | 4 h | > 10 µM |
| CC(=O)c1c(C)c2cnc(Nc3ccc(C4CCN(CCS(C)(=O)=O)CC4)cn3)nc2n(C2CCCC2)c1=O | lymphoma, colorectal, breast cancer cells | cell proliferation | – | range over tumour cell types | 0.143 to 0.545 µM |

A few entries again:
| Structure (SMILES) | cell line | test | system | setting | IC50 |
| --- | --- | --- | --- | --- | --- |
| COc1cc2c(O)c3c(c(-c4ccc5c(c4)OCO5)c2cc1OC)C(=O)OC3 | HEK293 | endosomal acidification | – | – | 0.476 ± 0.0601 µM |
